Measured values from different studies.
Each line is one published result; not all experiments were run side by side. ± marks the error that the study gave.

OCc1cc(C(O)CNCCCCCCOCCCCc2ccccc2)ccc1O (stereo not shown)
CC50 (African green monkey cells; 5 days): 18.6 µM

Nc1nc2c(ncn2[C@@H]2O[C@@H]3COP(=O)(O)O[C@H]4[C@@H](O)[C@H](n5cnc6c(N)ncnc65)O[C@@H]4COP(=O)(O)O[C@@H]2[C@@H]3O)c(=O)[nH]1
viability (HFF-1; 1 µg/mL): 96.9%

CC(=O)N[C@@H](CCCCN)C(=O)N[C@@H](CCCCN)C(=O)N[C@@H](CC(C)C)C(=O)N[C@@H](C)C(=O)N[C@@H](CCCCN)C(=O)N[C@@H](CC(C)C)C(=O)N[C@@H](CC(C)C)C(=O)N[C@@H](CCCCN)C(=O)N[C@@H](CCCCN)C(=O)N1CCC[C@H]1C(=O)N[C@@H](CC(C)C)C(=O)N[C@@H](CCCCN)C(=O)N[C@@H](CC(C)C)C(=O)N[C@@H](CC(C)C)C(=O)N[C@@H](CCCCN)C(N)=O
MHC10 (human red blood cells; haemolysis; 6 h, 37 °C, 5% haematocrit in PBS): > 160 µM

C=C(C)[C@H]1Cc2c(ccc3c2O[C@@H]2COc4cc(OC)c(OC)cc4[C@@H]2C3=O)O1
IC50 (THLE-2 transduced with P450 mix; metabolism-induced cytotoxicity; 48 h, 3D Matrigel spots): 0.4 ± 0.1 µM

Nc1nc2c(ncn2[C@@H]2O[C@@H]3COP(=O)(O)O[C@H]4[C@@H](O)[C@H](n5cnc6c(=O)[nH]c(N)nc65)O[C@@H]4COP(=O)(O)O[C@H]3[C@H]2O)c(=O)[nH]1
viability (HFF-1; 1 µg/mL): 89.9%

CN(CCC(Oc1ccc(C(F)(F)F)cc1)c1ccccc1)N=O (stereo not shown)
relative survival (TK6 expressing CYP2C19; 0.015 µM, 4 h, without S9; relative to: vehicle): 90.4%

CCNCc1nc2c(N)nc3ccccc3c2n1CC(C)(C)O
viability (HFF-1; 1 µg/mL, 48 h): 85.3%

CSc1ccc2c(c1)N(CCC1CCCCN1C)c1ccccc1S2 (stereo not shown)
CC50 (African green monkey cells; 5 days): 6.38 µM

O=C(NC1CC1)c1cc(-c2ccoc2)ccc1OCCc1cccc(F)c1
selectivity ratio (HepG2; 3 (unit not given); relative to: CC50 glucose over CC50 galactose): 2

CC(C)C[C@@H](NC(=O)CNC(=O)[C@@H](CCCCN)NC(=O)[C@@H](CC(C)C)NC(=O)[C@@H](CCCCN)NC(=O)[C@@H](CCCNC(=N)N)NC(=O)[C@@H](CC(C)C)NC(=O)[C@@H](CC(C)C)NC(=O)[C@@H](CCCNC(=N)N)NC(=O)[C@H](N)CCCNC(=N)N)C(=O)N[C@H](CCCCN)C(=O)N[C@H](CCCCN)C(=O)N[C@H](Cc1ccc(O)cc1)C(=O)N[C@H](CC(C)C)C(=O)N[C@H](Cc1ccc(O)cc1)C(=O)N[C@H](Cc1ccccc1)C(=O)N[C@H](CCCCN)C(=O)N[C@H](CC(C)C)C(=O)N[C@H](CCC(N)=O)C(=O)N[C@H](CC(C)C)C(=O)N[C@H](CC(C)C)C(=O)N[C@H](CCCCN)C(=O)N[C@H](CCCCN)C(N)=O
viability (RAW264.7; MTT; 32 µM, 48 h): ~70%

CC(=O)N[C@@H]1[C@@H](O[C@H](C)C(=O)N[C@@H](C)C(=O)N[C@H](CCC(=O)O)C(N)=O)[C@H](O)[C@@H](CO)O[C@H]1O
viability (HFF-1; 10 µg/mL): 88%

CC(=O)N[C@@H](CCCCN)C(=O)N[C@@H](CC(C)C)C(=O)N[C@@H](CC(C)C)C(=O)N[C@@H](CCCCN)C(=O)N[C@@H](CC(C)C)C(=O)N[C@@H](CC(C)C)C(=O)N[C@@H](CCCCN)C(=O)N[C@@H](CCCCN)C(=O)N1CCC[C@H]1C(=O)N[C@@H](CC(C)C)C(=O)N[C@@H](CCCCN)C(=O)N[C@@H](CC(C)C)C(N)=O
MHC10 (human red blood cells; haemolysis; 6 h, 37 °C, 5% haematocrit in PBS): > 160 µM

COc1cc2c(c(OC)c1OC)-c1ccc(OC)c(=O)cc1[C@@H](NC(C)=O)CC2
mitotic cells (HepG2 spheroids; flow cytometry, refers to: phospho-histone H3; 0.1 µM, 96 h; relative to: solvent control): 1.65 fold

CNC(=O)c1cc(C)ccc1OCCc1ccc(C2CC2)cc1
selectivity ratio (HepG2; 3 (unit not given); relative to: CC50 glucose over CC50 galactose): 1

CC(C)C[C@H](NC(=O)CNC(=O)[C@H](CCCCN)NC(=O)[C@H](CC(C)C)NC(=O)[C@H](CC(C)C)NC(=O)[C@H](CC(C)C)NC(=O)[C@@H](N)CCCCN)C(=O)NCC(=O)N[C@@H](CCCCN)C(=O)N[C@@H](CC(C)C)C(=O)N[C@@H](CC(C)C)C(=O)N[C@@H](CC(C)C)C(=O)N[C@@H](CCCCN)C(=O)O
lowest cytotoxic concentration (HEK-293T cells; CCK-8; 4 h, 37 °C, 10% cell death): 256 µg/mL

Cn1cncc1[C@@](N)(c1ccc(Cl)cc1)c1ccc2c(c1)c(-c1cccc(Cl)c1)cc(=O)n2C
CC50 (African green monkey cells; 5 days): 13.3 µM

Nc1nc2c(ncn2[C@@H]2O[C@@H]3COP(=O)(O)O[C@H]4[C@@H](O)[C@H](n5cnc6c(N)ncnc65)O[C@@H]4COP(=O)(O)O[C@H]3[C@H]2O)c(=O)[nH]1
viability (HFF-1; 1 µg/mL): 90.3%

CC(=O)N[C@@H](CCCCN)C(=O)N[C@@H](CCCCN)C(=O)N[C@@H](CC(C)C)C(=O)N[C@@H](CC(C)C)C(=O)N[C@@H](CCCCN)C(=O)N[C@@H](CC(C)C)C(=O)N[C@@H](C)C(=O)N[C@@H](CCCCN)C(=O)N[C@@H](CCCCN)C(=O)N1CCC[C@H]1C(=O)N[C@@H](CC(C)C)C(=O)N[C@@H](CCCCN)C(=O)N[C@@H](CC(C)C)C(=O)N[C@@H](CC(C)C)C(=O)N[C@@H](CCCCN)C(N)=O
MHC10 (human red blood cells; haemolysis; 6 h, 37 °C, 5% haematocrit in PBS): > 160 µM

O=S(=O)(O)c1nc2ccccc2s1
toxic ratio (rat hepatoma cells; cell confluency; 24 h, nominal concentration; relative to: baseline IC10 over IC10): 3.94

Oc1ccc(C2(c3ccc(O)cc3)c3ccccc3-c3ccccc32)cc1
early apoptotic cells (HepG2 spheroids, dissociated; annexin V-FITC/PI flow cytometry; 1 µM, 24 h): 13.6 ± 7.39%

Cc1ccc(C(=O)Oc2ccc(C(O)CNC(C)(C)C)cc2OC(=O)c2ccc(C)cc2)cc1 (stereo not shown)
CC50 (African green monkey cells; 5 days): 5.69 µM

CC(C)C[C@H](NC(=O)CN)C(=O)N[C@@H](CCCCN)C(=O)N[C@@H](CCCCN)C(=O)N[C@@H](CC(C)C)C(=O)N[C@@H](CC(C)C)C(=O)N[C@@H](CC(C)C)C(=O)N[C@@H](CC(C)C)C(=O)N[C@@H](CC(C)C)C(=O)N[C@@H](CCCCN)C(=O)N[C@@H](CCCCN)C(=O)N[C@@H](CC(C)C)C(=O)NCC(=O)NCC(=O)NCC(=O)N[C@@H](Cc1ccc(O)cc1)C(=O)N[C@H](C(=O)N[C@@H](CC(C)C)C(=O)N[C@@H](CO)C(=O)N[C@@H](CC(=O)O)C(=O)N[C@@H](CCCNC(=N)N)C(=O)N[C@@H](CO)C(=O)N[C@@H](Cc1c[nH]cn1)C(=O)N[C@@H](CC(N)=O)C(=O)N1CCC[C@H]1C(=O)N[C@@H](Cc1ccccc1)C(=O)N[C@@H](CC(N)=O)C(=O)O)[C@@H](C)O
lowest cytotoxic concentration (HEK-293T cells; CCK-8; 4 h, 37 °C, 10% cell death): 128 µg/mL

Cc1cc(C(C)(C)c2ccc(O)c(C)c2)ccc1O
late apoptotic cells (HepG2 spheroids, dissociated; annexin V-FITC/PI flow cytometry; 10 µM, 96 h): 31.5 ± 3.37%

CC(C)C[C@H](NC(=O)CN)C(=O)N[C@@H](CCCCN)C(=O)N[C@@H](CCCCN)C(=O)N[C@@H](CC(C)C)C(=O)N[C@@H](CC(C)C)C(=O)N[C@@H](CC(C)C)C(=O)N[C@@H](CC(C)C)C(=O)N[C@@H](CC(C)C)C(=O)N[C@@H](CCCCN)C(=O)N[C@@H](CCCCN)C(=O)N[C@@H](CC(C)C)C(=O)NCC(=O)O
lowest cytotoxic concentration (HEK-293T cells; CCK-8; 4 h, 37 °C, 10% cell death): 64 µg/mL

O=S(=O)(c1ccc(O)cc1)c1ccc(O)cc1
viable cells (HepG2 spheroids, dissociated; annexin V-FITC/PI flow cytometry; 10 µM, 96 h): 40.2 ± 13.7%

CN1[C@@H]2CC[C@H]1C[C@@H](OC(c1ccccc1)c1ccccc1)C2
CC50 (African green monkey cells; 5 days): 46.8 µM

Oc1ccc(C(c2ccc(O)cc2)(C(F)(F)F)C(F)(F)F)cc1
early apoptotic cells (HepG2 spheroids, dissociated; annexin V-FITC/PI flow cytometry; 0.10 µM, 96 h): 4.71 ± 3.63%

CN(CC[C@H](Oc1cccc2ccccc12)c1cccs1)N=O
relative survival (TK6 expressing CYP2C19; 1 µM, 4 h, without S9; relative to: vehicle): 70.7%

Some of these lines once more:
CC(C)C[C@H](NC(=O)CN)C(=O)N[C@@H](CCCCN)C(=O)N[C@@H](CCCCN)C(=O)N[C@@H](CC(C)C)C(=O)N[C@@H](CC(C)C)C(=O)N[C@@H](CC(C)C)C(=O)N[C@@H](CC(C)C)C(=O)N[C@@H](CC(C)C)C(=O)N[C@@H](CCCCN)C(=O)N[C@@H](CCCCN)C(=O)N[C@@H](CC(C)C)C(=O)NCC(=O)O
lowest cytotoxic concentration (HEK-293T cells; CCK-8; 4 h, 37 °C, 10% cell death): 64 µg/mL

CC(=O)N[C@@H](CCCCN)C(=O)N[C@@H](CCCCN)C(=O)N[C@@H](CC(C)C)C(=O)N[C@@H](CC(C)C)C(=O)N[C@@H](CCCCN)C(=O)N[C@@H](CC(C)C)C(=O)N[C@@H](C)C(=O)N[C@@H](CCCCN)C(=O)N[C@@H](CCCCN)C(=O)N1CCC[C@H]1C(=O)N[C@@H](CC(C)C)C(=O)N[C@@H](CCCCN)C(=O)N[C@@H](CC(C)C)C(=O)N[C@@H](CC(C)C)C(=O)N[C@@H](CCCCN)C(N)=O
MHC10 (human red blood cells; haemolysis; 6 h, 37 °C, 5% haematocrit in PBS): > 160 µM

C=C(C)[C@H]1Cc2c(ccc3c2O[C@@H]2COc4cc(OC)c(OC)cc4[C@@H]2C3=O)O1
IC50 (THLE-2 transduced with P450 mix; metabolism-induced cytotoxicity; 48 h, 3D Matrigel spots): 0.4 ± 0.1 µM

Cn1cncc1[C@@](N)(c1ccc(Cl)cc1)c1ccc2c(c1)c(-c1cccc(Cl)c1)cc(=O)n2C
CC50 (African green monkey cells; 5 days): 13.3 µM
